Assay results of several laboratories.
A part holds a random share of what one study measured.
UniProt P05771, sequence (whole entry, looked up): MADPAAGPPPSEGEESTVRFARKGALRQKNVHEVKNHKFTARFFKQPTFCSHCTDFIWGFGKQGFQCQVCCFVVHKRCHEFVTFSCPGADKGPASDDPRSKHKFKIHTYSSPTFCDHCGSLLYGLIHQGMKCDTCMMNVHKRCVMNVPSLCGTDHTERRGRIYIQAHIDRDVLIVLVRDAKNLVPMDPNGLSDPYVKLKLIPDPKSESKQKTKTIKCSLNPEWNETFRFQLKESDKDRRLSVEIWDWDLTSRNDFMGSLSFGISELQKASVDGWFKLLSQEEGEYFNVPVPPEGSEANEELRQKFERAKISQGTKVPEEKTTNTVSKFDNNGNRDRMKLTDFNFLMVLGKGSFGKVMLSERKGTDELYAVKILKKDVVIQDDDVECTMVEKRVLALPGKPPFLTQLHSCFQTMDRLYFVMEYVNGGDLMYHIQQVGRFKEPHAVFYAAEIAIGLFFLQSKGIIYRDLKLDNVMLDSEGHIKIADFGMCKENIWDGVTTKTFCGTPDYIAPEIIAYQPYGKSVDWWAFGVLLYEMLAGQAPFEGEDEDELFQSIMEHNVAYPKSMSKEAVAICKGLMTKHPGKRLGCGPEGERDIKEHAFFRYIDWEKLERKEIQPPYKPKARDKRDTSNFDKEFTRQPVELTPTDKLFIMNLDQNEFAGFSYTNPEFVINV
UniProt O96017, sequence (whole entry, looked up): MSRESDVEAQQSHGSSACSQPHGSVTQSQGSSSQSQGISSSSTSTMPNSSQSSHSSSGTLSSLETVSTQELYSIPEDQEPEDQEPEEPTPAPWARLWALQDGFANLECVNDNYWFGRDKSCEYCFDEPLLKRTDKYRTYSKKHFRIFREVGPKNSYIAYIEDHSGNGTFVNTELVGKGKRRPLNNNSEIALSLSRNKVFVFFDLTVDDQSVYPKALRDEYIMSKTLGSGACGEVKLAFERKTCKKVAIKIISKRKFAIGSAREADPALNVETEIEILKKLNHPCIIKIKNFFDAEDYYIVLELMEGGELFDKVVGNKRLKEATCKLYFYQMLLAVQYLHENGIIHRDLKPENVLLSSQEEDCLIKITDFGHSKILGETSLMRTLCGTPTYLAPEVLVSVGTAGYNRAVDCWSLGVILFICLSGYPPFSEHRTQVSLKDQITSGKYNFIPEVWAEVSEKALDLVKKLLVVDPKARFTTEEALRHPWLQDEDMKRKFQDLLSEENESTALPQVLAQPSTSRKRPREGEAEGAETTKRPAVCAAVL
UniProt Q99759, sequence (whole entry, looked up): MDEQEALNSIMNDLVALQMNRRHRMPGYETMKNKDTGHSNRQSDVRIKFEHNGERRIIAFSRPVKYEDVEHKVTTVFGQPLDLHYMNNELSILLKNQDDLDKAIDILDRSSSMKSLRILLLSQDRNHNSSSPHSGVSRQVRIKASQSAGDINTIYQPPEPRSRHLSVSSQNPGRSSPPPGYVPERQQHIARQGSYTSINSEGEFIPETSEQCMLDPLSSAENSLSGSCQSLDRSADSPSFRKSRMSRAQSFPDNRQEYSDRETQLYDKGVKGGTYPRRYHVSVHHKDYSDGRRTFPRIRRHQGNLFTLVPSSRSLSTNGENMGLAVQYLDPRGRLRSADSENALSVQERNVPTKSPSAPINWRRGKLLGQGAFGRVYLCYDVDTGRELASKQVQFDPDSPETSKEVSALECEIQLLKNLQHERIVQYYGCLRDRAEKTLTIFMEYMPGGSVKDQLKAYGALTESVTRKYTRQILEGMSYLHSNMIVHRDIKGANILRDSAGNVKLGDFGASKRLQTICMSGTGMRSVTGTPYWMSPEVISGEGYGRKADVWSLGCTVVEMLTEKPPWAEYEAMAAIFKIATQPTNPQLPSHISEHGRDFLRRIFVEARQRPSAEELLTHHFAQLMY
UniProt Q13557, sequence (whole entry, looked up): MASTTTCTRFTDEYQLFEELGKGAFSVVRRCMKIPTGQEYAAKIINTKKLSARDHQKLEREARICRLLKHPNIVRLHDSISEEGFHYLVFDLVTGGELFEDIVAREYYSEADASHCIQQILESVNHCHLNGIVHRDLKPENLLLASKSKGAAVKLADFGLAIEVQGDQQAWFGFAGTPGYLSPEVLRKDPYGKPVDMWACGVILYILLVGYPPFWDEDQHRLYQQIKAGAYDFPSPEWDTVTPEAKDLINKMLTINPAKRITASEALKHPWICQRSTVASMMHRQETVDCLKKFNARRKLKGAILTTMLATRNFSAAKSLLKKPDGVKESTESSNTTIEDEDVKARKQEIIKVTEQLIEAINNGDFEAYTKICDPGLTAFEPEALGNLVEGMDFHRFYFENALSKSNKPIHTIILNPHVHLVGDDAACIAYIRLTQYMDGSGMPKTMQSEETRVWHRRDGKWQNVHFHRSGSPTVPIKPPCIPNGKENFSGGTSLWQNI
UniProt O94804, sequence (whole entry, looked up): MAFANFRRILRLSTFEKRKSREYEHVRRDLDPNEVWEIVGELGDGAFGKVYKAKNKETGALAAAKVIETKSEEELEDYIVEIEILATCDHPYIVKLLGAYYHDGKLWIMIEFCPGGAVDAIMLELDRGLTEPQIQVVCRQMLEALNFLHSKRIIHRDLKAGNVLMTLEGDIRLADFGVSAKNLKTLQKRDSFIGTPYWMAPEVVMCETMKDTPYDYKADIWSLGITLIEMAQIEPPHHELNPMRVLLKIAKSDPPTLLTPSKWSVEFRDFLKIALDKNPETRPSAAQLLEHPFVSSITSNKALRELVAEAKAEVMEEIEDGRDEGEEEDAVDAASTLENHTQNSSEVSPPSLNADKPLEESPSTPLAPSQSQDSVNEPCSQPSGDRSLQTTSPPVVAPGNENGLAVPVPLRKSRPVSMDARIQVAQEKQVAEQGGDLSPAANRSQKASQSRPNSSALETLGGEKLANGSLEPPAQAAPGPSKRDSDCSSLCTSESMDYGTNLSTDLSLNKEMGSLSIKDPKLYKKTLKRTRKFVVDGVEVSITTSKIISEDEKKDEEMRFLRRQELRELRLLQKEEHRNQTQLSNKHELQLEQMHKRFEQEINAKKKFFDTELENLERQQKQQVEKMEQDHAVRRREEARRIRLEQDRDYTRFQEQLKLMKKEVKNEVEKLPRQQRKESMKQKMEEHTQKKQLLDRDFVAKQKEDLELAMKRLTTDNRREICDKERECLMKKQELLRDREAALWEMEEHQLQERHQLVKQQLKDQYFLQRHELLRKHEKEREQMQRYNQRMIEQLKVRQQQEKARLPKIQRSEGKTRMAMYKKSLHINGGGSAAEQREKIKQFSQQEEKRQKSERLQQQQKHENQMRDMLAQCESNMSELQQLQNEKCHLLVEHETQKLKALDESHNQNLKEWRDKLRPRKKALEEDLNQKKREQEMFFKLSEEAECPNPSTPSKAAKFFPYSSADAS
UniProt P36897, sequence (whole entry, looked up): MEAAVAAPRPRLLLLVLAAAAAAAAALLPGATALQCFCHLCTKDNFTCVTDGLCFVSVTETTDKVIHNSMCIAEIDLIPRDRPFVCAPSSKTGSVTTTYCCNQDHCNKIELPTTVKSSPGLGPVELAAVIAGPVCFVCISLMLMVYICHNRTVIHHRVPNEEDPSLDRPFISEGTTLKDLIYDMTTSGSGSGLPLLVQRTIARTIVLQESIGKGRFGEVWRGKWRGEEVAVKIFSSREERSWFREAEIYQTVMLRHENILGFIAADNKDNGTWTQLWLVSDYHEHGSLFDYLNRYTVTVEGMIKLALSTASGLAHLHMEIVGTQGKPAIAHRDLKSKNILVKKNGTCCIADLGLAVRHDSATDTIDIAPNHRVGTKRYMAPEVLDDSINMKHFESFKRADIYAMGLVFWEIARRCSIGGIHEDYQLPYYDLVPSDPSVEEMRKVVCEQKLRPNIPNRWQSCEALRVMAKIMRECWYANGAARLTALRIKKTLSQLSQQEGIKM
UniProt P51813, sequence (whole entry, looked up): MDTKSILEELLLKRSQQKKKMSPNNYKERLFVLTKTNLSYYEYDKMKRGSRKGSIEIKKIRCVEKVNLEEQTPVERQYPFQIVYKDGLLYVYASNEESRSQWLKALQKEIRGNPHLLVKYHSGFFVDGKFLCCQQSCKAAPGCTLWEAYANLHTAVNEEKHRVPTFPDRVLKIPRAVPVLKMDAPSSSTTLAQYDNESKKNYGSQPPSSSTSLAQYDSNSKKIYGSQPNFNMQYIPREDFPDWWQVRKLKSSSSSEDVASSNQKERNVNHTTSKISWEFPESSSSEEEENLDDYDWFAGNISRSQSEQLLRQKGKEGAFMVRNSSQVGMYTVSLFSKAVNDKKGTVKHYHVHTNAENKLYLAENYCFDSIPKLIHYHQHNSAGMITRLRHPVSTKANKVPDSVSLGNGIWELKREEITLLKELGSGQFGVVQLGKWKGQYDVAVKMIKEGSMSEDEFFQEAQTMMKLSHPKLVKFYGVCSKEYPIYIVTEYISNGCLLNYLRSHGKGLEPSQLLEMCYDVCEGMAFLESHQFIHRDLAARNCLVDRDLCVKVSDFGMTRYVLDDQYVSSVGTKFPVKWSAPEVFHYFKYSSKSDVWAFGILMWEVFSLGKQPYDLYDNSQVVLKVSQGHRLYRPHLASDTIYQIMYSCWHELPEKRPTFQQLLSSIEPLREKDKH

Study 1
Compound: CCN(CC)C(=O)c1ccc(Nc2nc(OCC3CCCCC3)c3[nH]cnc3n2)cc1
Effect on: enzyme activity
Mode: inhibitor
Tested at: 0.5 µM
Baseline: control
Quantity: remaining activity
target = MAPK9 (Homo sapiens, UniProt P45984); result = 60.8%
target = TGFBR1 (Homo sapiens, UniProt P36897); result = 100%
target = STK39 (Homo sapiens, UniProt Q9UEW8); result = 91.5%
target = DAPK1 (Homo sapiens, UniProt P53355); result = 81.5%
target = STK10 (Homo sapiens, UniProt O94804); result = 57.3%
target = CAMK2D (Homo sapiens, UniProt Q13557); result = 94.5%
target = Cyclin-dependent kinase 4, with cyclin D1 (CDK4, Homo sapiens, UniProt P11802); result = 82%
target = MAP3K3 (Homo sapiens, UniProt Q99759); result = 47.3%
target = OXSR1 (Homo sapiens, UniProt O95747); result = 99%
target = CHEK2 (Homo sapiens, UniProt O96017); result = 71.3%
target = Protein kinase C beta type, isoform beta-I (PRKCB, Homo sapiens, UniProt P05771); result = 103%

Study 2
Target: ATP-dependent RNA helicase DDX3X, helicase core (DDX3X, Homo sapiens, UniProt O00571, residues 132-607)
UniProt O00571, sequence (132-607, looked up): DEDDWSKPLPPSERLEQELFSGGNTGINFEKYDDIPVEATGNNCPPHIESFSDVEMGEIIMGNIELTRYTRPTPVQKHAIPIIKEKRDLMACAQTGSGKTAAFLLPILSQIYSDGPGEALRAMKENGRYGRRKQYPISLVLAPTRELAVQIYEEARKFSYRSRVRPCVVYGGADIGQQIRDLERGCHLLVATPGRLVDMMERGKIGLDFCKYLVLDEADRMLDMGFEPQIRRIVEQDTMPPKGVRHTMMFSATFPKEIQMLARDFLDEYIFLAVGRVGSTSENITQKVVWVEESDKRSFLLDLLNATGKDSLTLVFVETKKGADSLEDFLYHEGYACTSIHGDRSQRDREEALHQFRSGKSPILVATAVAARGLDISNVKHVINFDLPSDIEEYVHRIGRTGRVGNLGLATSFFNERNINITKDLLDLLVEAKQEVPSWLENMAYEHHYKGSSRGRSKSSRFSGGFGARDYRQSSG
Method: RNA Bind-n-Seq
Form: RNA
Matrix: in vitro
Tested at: not given
Setting: 4-mer, random 30-nt RNA, single round
Together with: RocA, ADP, phosphate
Baseline: input library
Direction: higher = stronger binding
Quantity: 4-mer enrichment
Oligonucleotide = UUCU; result = 0.755 fold
Oligonucleotide = CGUU; result = 0.843 fold
Oligonucleotide = ACCC; result = 0.836 fold
Oligonucleotide = GUGU; result = 1.21 fold
Oligonucleotide = AGCC; result = 0.77 fold
Oligonucleotide = UAAC; result = 0.74 fold
Oligonucleotide = UAUU; result = 0.949 fold
Oligonucleotide = AGAC; result = 0.948 fold

Study 3
Structure (SMILES): COc1ccc2c(O[C@@H]3C[C@H]4C(=O)N[C@]5(C(=O)O)CC5/C=C\CCCCC[C@H](NC(=O)OC5CCCC5)C(=O)N4C3)cc(-c3csc(NC(=O)C(C)C)n3)nc2c1C (stereo partly drawn)
Effect on: cell-free assay
Method: competition with immobilised ligand
Tested at: 1 µM
Quantity: remaining binding
target = LATS2 (Homo sapiens, UniProt Q9NRM7); result = 98%
target = Tyrosine-protein kinase ABL1, non-phosphorylated (ABL1, Homo sapiens, UniProt P00519, H396P); result = 77%
target = BMX (Homo sapiens, UniProt P51813); result = 57%

Study 4
Target: PABPC1L2, full length, GST fusion (mouse, UniProt A0ABA7IW68)
Method: RNAcompete
Form: RNA
Matrix: in vitro
Tested at: 20 nM
Setting: 7-mer, probes averaged, single round
Baseline: mean of 7-mers
Direction: higher = stronger binding
Quantity: 7-mer Z-score
Residues (chain): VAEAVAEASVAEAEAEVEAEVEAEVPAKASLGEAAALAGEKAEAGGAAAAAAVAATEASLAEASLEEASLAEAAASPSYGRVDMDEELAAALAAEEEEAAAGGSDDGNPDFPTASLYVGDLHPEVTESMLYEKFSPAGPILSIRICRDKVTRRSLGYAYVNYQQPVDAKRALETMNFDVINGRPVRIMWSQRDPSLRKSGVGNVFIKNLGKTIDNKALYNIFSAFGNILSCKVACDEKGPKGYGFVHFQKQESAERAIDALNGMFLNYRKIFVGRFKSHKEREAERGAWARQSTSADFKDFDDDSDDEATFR
Oligonucleotide = GGCUGCA; result = 0.173
Oligonucleotide = AGAAAGC; result = 0.729
Oligonucleotide = UACGAAU; result = -0.13
Oligonucleotide = UGUUAAU; result = -0.237
Oligonucleotide = AGUUGGU; result = -0.155
Oligonucleotide = UAGCGUC; result = -0.302
Oligonucleotide = CAAGUAG; result = 0.0623
Oligonucleotide = UUUAUUC; result = -0.376

Excerpt of the above (study 3):
target = Tyrosine-protein kinase ABL1, non-phosphorylated (ABL1, Homo sapiens, UniProt P00519, H396P); result = 77%
target = BMX (Homo sapiens, UniProt P51813); result = 57%
target = LATS2 (Homo sapiens, UniProt Q9NRM7); result = 98%
